Results from different studies.
Every numbered part comes from another study and shows a few of its results, in no order.

Sample 1
Target: Interferon regulatory factor 5, full length, phosphomimetic (IRF5, Homo sapiens, UniProt Q13568-2, residues 1-514, K96S/S451D/S453D/S456D/S462D)
Technique: protein-binding microarray
Molecule type: double-stranded DNA, one strand shown
Sample: in vitro
Tested at: 250 nM
Notes: 60-bp whole probe
Added: salmon DNA 0.4 mg/ml
Reference: random background probes
Direction: higher = stronger binding
All sequences stand within: GCCTAGCAC … GTCTTGATTCGCTTGACGCTGCTG
Oligonucleotide | log fluorescence [z-score]
CATTTTCTAAATTCCCTAGTGTGCTAG | 1.24
TTAGGACTGGGTTTCGCTTAGTGCTAG | 2.92
GACGGACTGGGGTATCGGGAAGTGCTA | 0.0964
GACGATCTCAGACTGTAGACGTGCTAG | -0.378
TCAAAACTCTTTATTTAACTGTGCTAG | 0.709
GGCGGACTGCTTCTCCTGACGTGCTAG | -0.715
GACGAACTAGGGTATCGAGACGTGCTA | 0.0124
GACGATATCAGTCTGGAGACGTGCTAG | 0.947
TTAGATATCTTTTTCCTAATGTGCTAG | 0.979
GGTCTTCTGGACTGTTTGGTCGTGCTA | -0.436
GAAGCTTCCTCTCTGCCACTGTGCTAG | 0.0726
GACGGTCTTGGTATCGGGACGTGCTAG | 1.1
TTAGGACTGCTACTGATTTAGTGCTAG | -0.203
TTAGCACTGGGTCTCGGTTAGTGCTAG | 0.161
TTAGGACTGCTTCTCCTTTCGTGCTAG | 0.516
GACGAACTGAGATTCGAGACGTGCTAG | -0.333
TTAGAACTGGGTTTCGATTAGTGCTAG | 7.6
TCAAGTTTCACTTTCCAACTGTGCTAG | 7.33
TTAGGTTTCCTTCTGCTTTAGTGCTAG | 1.14
TTAGGTATCAGTTTCGATTAGTGCTAG | 10
GACGGTTTCCTTCTCCCGACGTGCTAG | 1.07
TTAGGTCTCGGTCCCGGTTAGTGCTAG | 0.254
GTAGATCTCAGTATCGATTAGTGCTAG | 6.25
GACGAACTGGGGTTGCGAGACGTGCTA | -0.613
CTGTACTTGAATTCTGCAAAGTGCTAG | -0.135

Sample 2
Target: RNA binding protein fox-1 homolog 2, RRM domain, GST-SBP tag (RBFOX2, Homo sapiens, UniProt O43251-10, residues 100-194)
Technique: RNA Bind-n-Seq
Molecule type: RNA
Sample: in vitro
Tested at: 365 nM
Notes: natural RNA segment, single round, ends assumed
Reference: no-protein control
Direction: higher = stronger binding
All sequences stand within: GGGAGUUCUACAGUCCGACGAUC … UGGAAUUCUCGGGUGCCAA
Target sequence (chain): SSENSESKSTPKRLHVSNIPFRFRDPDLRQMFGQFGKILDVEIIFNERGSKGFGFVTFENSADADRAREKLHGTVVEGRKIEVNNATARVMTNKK
Oligonucleotide | RBNS enrichment (R)
GAGAAGACAAGAAGAAUAAUGUCAACAGAACAACAUCACUUUGGGCCAAGCAUUUGAACACUUUUUAUAUAAAAUUGUGUGAUGUCUCUUUAUGUCUGCUCUGAGCCUUA | 1.2
GGUGCCUGGCUGCCCAGCCUGCGGUAGCCGUGCUCCCUGCCCUCCUGUGGCCCUAUGGUGUGAUGCUGUGUCUGUAUCUAUGUGUCUAUACAAAGGUACUUGCCCUUUCC | 0.9
AGCUUGGGAAAUAGCCCUUGGUGUGGGUUUUAUCUCUGGUUUGUGUUCUCCGUGGUGGAAUUGACCGAAAGCUCUAUGUUUUCGUUAAUAAAGGGCAACUUAGCCAAGUU | 0.317
UACUAUCAAAAACUAAGAACAUAGUUGAAGCAUGCUUCCUGAAAAUUAACUACAUUAGAAACUGACAUCCUUAUACUGGUCUCCCAAGUACAAAAGUAGGAAGAAGCCGU | 5.65
GGAAGAGGGUCUGCUGGGGGUUCCUGUGGCCUUCCGCUGUGUCUGGACAACACUAACACAGGACCCUUGUUGCUACCUGGUUCUGACUCCAGACAACCACAAUGCCAGGU | 0.399
CAAUAGAGCCCACCAACCACAUAGAAGUCCCCUGGCUAGAGUCUGAUGCCUGGUGGCUUACCGGACUUCUCAGUCAAUUCUGAAAGGUAUAUUUUGGGCACACAGUGAAA | 0.447
UCCACUCAUCUCGAAGGGUUGUGGUCCCCCCAGGAAAGUCUCGAGACAAUGGGGACAUUGUUGGUAGCUGUUCGGUAGAUGCUCUUUGCUAUUUAUAAGUGACUUUAAAC | 0.574
UUACAAUUGGCUUGUAUGAGAAGAAAAAGUAUUUUUAUUGUUUUGAGUGAUGACGCAGAGACUCAGUGAACUUGAAAAUAGCAUUGCUUCGUGCACUUUGAAUACCAAUC | 1.24
AGUGUAUCAAAAAUUGAUGGGAUAUUAGUGUUAGGUUUUGCUUAAAUGAAAAUUAAUAAAUUCAAAAAUACUAAAAGUCACCUUCUUUGUCACGUUAGCAACCAGUUUCU | 0.329
UUCCAAAAGCCUUCAAGAUGGCAGCAGAUGGACACACCCUCUCAUUUCUUGUGUCUUGUCUGUCAGAUGGCAGGAGGCCUGUAUCAGUAAAUUUGAGGAAAAUGUUCUCU | 0.38
GCACCCCUCUGGUUCUCAGCAAACUCAGACAAGGCAGUGCCACCAGGCCUGUCAGCAAAGCACCUUCCUCUGCCCACAGCCAGUCAGAGAAAACGAUCCAAAGGAGGGCA | 0.366
GCAUUCCCCUGACAAAGGUAUCAUGUGUACAGCUCAGUAGUGUGCCCUGUCCUUCUCAUGGACUCCAUUCAUGUCUGCUCCUCACUAACAGACUUGGGUUUUCCCAAUAC | 0.335

Sample 3
Target: Histone acetyltransferase KAT6A, winged helix 1, GST fusion (KAT6A, Homo sapiens, UniProt Q92794, residues 1-85)
Technique: protein binding microarray
Molecule type: double-stranded DNA, one strand shown
Sample: in vitro
Tested at: not given
Notes: 8-mer, flanks averaged, mean of 2 arrays, mostly near background
Reference: not given
Direction: higher = stronger binding
Residues (chain): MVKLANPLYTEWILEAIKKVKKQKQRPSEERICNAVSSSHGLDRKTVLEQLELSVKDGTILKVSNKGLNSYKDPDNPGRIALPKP
Oligonucleotide | E-score
ATATTGTC | 0.0617
CAATAATG | -0.0217
AGGGATCC | 0.0585
AACTGGTG | -0.163
ATAGAAAG | -0.116
AAAACCAA | -0.0774
GCTTACTA | 0.0582
AGCTTTCG | -0.1
CATCTTAG | -0.129
ACGCAGAT | 0.11
ACCGAGGT | 0.0194
CGAAGTGA | -0.184
ACTTCCTG | -0.174
CAAGGCCA | -0.0547
GAATTGAC | -0.157
GGGCTCCA | -0.00534
AACAATGC | -0.0257
ACGTAGCA | -0.132
ATAAACTA | -0.0477
ACAGCATC | -0.172
AAAGGGTA | -0.0361

Sample 4
Target: Fragile X messenger ribonucleoprotein 1, C-terminal low-complexity region (Fmr1, Mus musculus, UniProt P35922)
Technique: RNA Bind-n-Seq
Molecule type: RNA
Sample: in vitro
Tested at: 200 nM
Notes: whole 134-nt RNA, ends assumed
Added: 150 mM KCl
Reference: input library
Direction: higher = stronger binding
All sequences stand within: GGGAGUUCUACAGUCCGACGAUC … UGGAAUUCUCGGGUGUCAAGG
Oligonucleotide | log2 enrichment
UAUAUUGAGGUAUAGAGCUAUUCUUUGUAGGUACCCUGGUGAGACCGAUACAAAUAUGCCCCUCCCCAUAAUGGAAUACUAAUUUUUAUU | -0.497
AGUCCUGUGCUACACAUCGUAUGUACCGAAUCGGGUUUGGGAAAAAGGGAAAAAGGGAAAGUAUUAUGUUACGCCGUUCGGAUCUGCACU | 0.039
UUACGAUUAUAUCACCCGGACACACAUCAUGCUUAAGAUUCAACUGGGAGCAUACCAGGGAUGCUCUCUAACGUAAUCAAGGGAAGGUUC | -1.39
GGAGGAAGUAAAAACAAAUGGAAAUGCUUCGGAUAGUGGCAGGGGUGGGGGUUGCUAAGGAAAGGGUGGGAUGGGAGUGGGUAAAGAGUU | 0.482
GUCCUGUGCUACACAUCGUAUGUACCGAAUCGGGGUGGGGAAAGGGGAAAAAAAGGGGAAAGUAUUAUGUUACGCCGUUCGGAUCUGCAC | 0.428
CGCAGACAACACGCACCCACACAGACACAGAGGGAAGGGGUUGGGAUGGGGACAGGGUGCACAGCAGGGCGGGGUAGGACCCCAGCCCCU | 1.48
CCUCAAGUCCUGUGCUACACAUCGUAUGUACCGAAUCGGGUGGGGUGGUGGGGAAAGUAUUAUGUUACGCCGUUCGGAUCUGCACUUCCA | 1.24
CUGUGCUACACAUCGUAUGUACCGAAUCGGGGAAAAAAAGGGAAAAAAAGGAAAAAAAGGGGAAAGUAUUAUGUUACGCCGUUCGGAUCU | -0.395
AGUCCUGUGCUACACAUCGUAUGUACCGAAUCGGGCCCCGGGCCCCGGGCCCCGGGGAAAGUAUUAUGUUACGCCGUUCGGAUCUGCACU | -1.01
UCAAGUCCUGUGCUACACAUCGUAUGUACCGAAUCGGUUGGGGUUGGGUUGGGGAAAGUAUUAUGUUACGCCGUUCGGAUCUGCACUUCC | 1.08
UUUUUGAAUCAAUUUUUAAAACAUGCCAUUGUGUUUCAGGCUCGCGGGAUUGAUGUGCAACAAGUGUCUUUGGUUAUAAAUUAUGAUCUA | -0.146
UGGCCCUGGUGGCAUGCGGGGAGGAAGAGGUGGCCUCAUGGAUGGUGGUGGUCCCGGUGGAAUGUUCAGAGGUGGCCGUGGUGGAGACAG | 0.349
UGGGAGGUGGAUUUUGUUUAUUUUUUUAGCUCAUUUCCAGGGGUGGGAAUUUUUUUUUAAUAUGUGUCAAGAAUAAAGUUGUUUUUGAAA | 0.261
GCAGGAAGUAAAAACAAAUGGAAAUGCUUCGGAUAGUGGCAGGGGUGGGGGUUGAUAAGGAAAGGGUGGGAUGGGAGUGGGUAAAGAGUU | -0.00717

A few entries again (sample 4):
Oligonucleotide | log2 enrichment
GGAGGAAGUAAAAACAAAUGGAAAUGCUUCGGAUAGUGGCAGGGGUGGGGGUUGCUAAGGAAAGGGUGGGAUGGGAGUGGGUAAAGAGUU | 0.482
GUCCUGUGCUACACAUCGUAUGUACCGAAUCGGGGUGGGGAAAGGGGAAAAAAAGGGGAAAGUAUUAUGUUACGCCGUUCGGAUCUGCAC | 0.428
CGCAGACAACACGCACCCACACAGACACAGAGGGAAGGGGUUGGGAUGGGGACAGGGUGCACAGCAGGGCGGGGUAGGACCCCAGCCCCU | 1.48
CCUCAAGUCCUGUGCUACACAUCGUAUGUACCGAAUCGGGUGGGGUGGUGGGGAAAGUAUUAUGUUACGCCGUUCGGAUCUGCACUUCCA | 1.24
CUGUGCUACACAUCGUAUGUACCGAAUCGGGGAAAAAAAGGGAAAAAAAGGAAAAAAAGGGGAAAGUAUUAUGUUACGCCGUUCGGAUCU | -0.395
AGUCCUGUGCUACACAUCGUAUGUACCGAAUCGGGCCCCGGGCCCCGGGCCCCGGGGAAAGUAUUAUGUUACGCCGUUCGGAUCUGCACU | -1.01
UCAAGUCCUGUGCUACACAUCGUAUGUACCGAAUCGGUUGGGGUUGGGUUGGGGAAAGUAUUAUGUUACGCCGUUCGGAUCUGCACUUCC | 1.08
